Assay results from different studies.
Each numbered part is a random draw from the data of one study; scales do not carry over between parts. Substitutions count along the parent as printed.

Block 1
Target: ABI1, truncated, D143A, DHFR fusion (Arabidopsis thaliana)
Technique: DHFR PCA, deep sequencing
Medium: yeast
Notes: methotrexate growth selection, single substitutions
Added: (+)-ABA 0.39 µM
Baseline: wild-type fitted maximum
Reading: higher = stronger binding
Parent: PYL1, truncated, DHFR fusion (Arabidopsis thaliana); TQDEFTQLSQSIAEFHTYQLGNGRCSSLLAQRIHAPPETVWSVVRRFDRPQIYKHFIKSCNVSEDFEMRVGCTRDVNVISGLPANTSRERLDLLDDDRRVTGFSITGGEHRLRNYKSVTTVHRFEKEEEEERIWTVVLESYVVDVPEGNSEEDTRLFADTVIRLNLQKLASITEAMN
Change | relative binding score [%]
F157R | 10.6
C25M | 3.52
K54A | -14.8
H55N | 35.3
T119K | -3.55
Q10R | 37.9

Block 2
Target: Histone acetyltransferase KAT6A, both winged helices, GST fusion (KAT6A, Homo sapiens, UniProt Q92794, residues 1-181)
Technique: protein binding microarray
Form: double-stranded DNA, one strand shown
Medium: in vitro
Concentration: not given
Notes: 8-mer, flanks averaged, mean of 2 arrays, mostly near background
Baseline: not given
Reading: higher = stronger binding
Construct (chain): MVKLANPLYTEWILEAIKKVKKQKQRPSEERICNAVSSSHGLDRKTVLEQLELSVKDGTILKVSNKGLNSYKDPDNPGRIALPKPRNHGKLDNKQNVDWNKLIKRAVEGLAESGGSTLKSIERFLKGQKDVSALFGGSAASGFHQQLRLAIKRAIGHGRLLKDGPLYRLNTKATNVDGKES
Sequence | E-score
AAATAGGG | -0.129
GGGAGACA | -0.0237
CAACCACA | -0.0454
AAGGTACG | 0.0551
GGGAATGA | 0.0721
GATCGTGA | -0.161
CGTCGAAG | 0.124
AAATTTAA | -0.0764
AGTGGCCC | -0.0396

Block 3
Substance: PhoQ, residues 284 288 289 292 302 303 TLASMF
Technique: Sort-seq
Item: YFP reporter
Medium: E. coli
Notes: PhoQ-PhoP variant library
Added: 10 µM Mg2+
Baseline: high Mg2+ state
Reading: higher = stronger signaling
target | fold induction
PhoP, residues 12 14 15 18 19 SHWTV (Escherichia coli, UniProt P23836) | 8.81
PhoP, residues 12 14 15 18 19 STHWV (Escherichia coli, UniProt P23836) | 8.92
PhoP, residues 12 14 15 18 19 QYCSL (Escherichia coli, UniProt P23836) | 3.2

Block 4
Target: RNA binding protein fox-1 homolog 2, RRM domain, GST-SBP tag (RBFOX2, Homo sapiens, UniProt O43251-10, residues 100-194)
Technique: RNA Bind-n-Seq
Form: RNA
Medium: in vitro
Concentration: 365 nM
Notes: natural RNA segment, single round, ends assumed
Baseline: no-protein control
Reading: higher = stronger binding
Constant ends, left off below: GGGAGUUCUACAGUCCGACGAUC … UGGAAUUCUCGGGUGCCAA
Construct (chain): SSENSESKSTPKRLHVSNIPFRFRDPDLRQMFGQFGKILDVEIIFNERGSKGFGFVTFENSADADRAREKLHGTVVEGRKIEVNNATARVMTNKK
Sequence | RBNS enrichment (R)
ACAUGGUGAAACCCUAUCUCCACUAAAAAUACAAAAUUAGCUGGGUGUGGUGGCGCAUGCCUGUAAUCCCAGCUACUUGGGAGACUGAGGCAAGAGAAUCACUUGAACCC | 0.526
UGUUGUUGACCAAAAUCACACACAUGGAAACAUGUAAUUCAACAGAGUGGGAAAGCUAGCAGAUUCUUGGCUUAGUAUUACUAAUAGGCAGGAUUGUACAAUGAGCAACU | 0.154
CUGUGACGAGGAACUGCCAUUGCAGGGUCAAUCACCAGGCACUUGCACAUGUAGAAACCUGUAGACUUUGGUUACUGCUAUAUUCCCCUUGAGAUCCUUGCUGGAUGCCG | 0.689
ACCCCCGAGGUCUUCCUUGAACAUCAGGCUUCCAGGCCCCGUUAUCUUCGCCCCAGGAAGGGUGCAUGGGCUCCCACUUUAAUUUUUCUCUUCCAAGUCUCCAGAUUCUG | 1.1
CAUGAAUGCAUCGUCCCUUUAUCUGUAAGAACCCUUAGUGUCCUGUAGGGGGACAGAAUGGGGUGGCCAGGUGGUGAUUUCUCUUUGACCAAUGCAUAGUUUGGCAGAAA | 13
UGGUUUGUGUAGGAGUUCCCUGUAGAUAAAUUACUGGUCCCCCAACCACUAUCCCCAGUAUGUAAUGGCUGAAUUAAUAUGUAAUCAACUGCAUUGUAUCUAAAGCCUUA | 0.611

Repeated from above (block 1):
Change | relative binding score [%]
K54A | -14.8
